Assay results from different studies.
Each numbered part is a random draw from the data of one study; scales do not carry over between parts.
Sequence of UniProt P11802 (whole entry, looked up): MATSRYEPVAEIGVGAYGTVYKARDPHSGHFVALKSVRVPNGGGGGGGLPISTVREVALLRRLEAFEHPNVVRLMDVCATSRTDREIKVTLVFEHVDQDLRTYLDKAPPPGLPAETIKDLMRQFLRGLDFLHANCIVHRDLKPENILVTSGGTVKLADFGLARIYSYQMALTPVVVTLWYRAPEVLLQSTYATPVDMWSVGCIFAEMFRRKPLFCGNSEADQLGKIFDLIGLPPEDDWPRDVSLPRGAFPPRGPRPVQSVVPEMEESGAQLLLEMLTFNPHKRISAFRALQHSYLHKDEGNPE
Sequence of UniProt Q8TDR2 (whole entry, looked up): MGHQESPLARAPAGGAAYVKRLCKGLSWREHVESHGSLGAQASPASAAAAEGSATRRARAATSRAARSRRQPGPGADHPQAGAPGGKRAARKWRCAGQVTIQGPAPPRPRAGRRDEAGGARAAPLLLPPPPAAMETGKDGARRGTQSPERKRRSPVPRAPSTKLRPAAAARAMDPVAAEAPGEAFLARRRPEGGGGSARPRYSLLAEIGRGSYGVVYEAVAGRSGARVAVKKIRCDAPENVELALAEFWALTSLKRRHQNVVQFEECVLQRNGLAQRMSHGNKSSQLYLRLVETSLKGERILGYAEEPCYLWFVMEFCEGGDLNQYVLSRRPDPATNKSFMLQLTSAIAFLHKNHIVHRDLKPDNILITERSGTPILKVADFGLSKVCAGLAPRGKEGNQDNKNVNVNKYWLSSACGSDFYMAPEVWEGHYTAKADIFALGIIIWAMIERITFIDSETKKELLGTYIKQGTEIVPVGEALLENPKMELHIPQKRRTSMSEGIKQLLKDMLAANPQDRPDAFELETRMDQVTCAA
Sequence of UniProt Q99640 (whole entry, looked up): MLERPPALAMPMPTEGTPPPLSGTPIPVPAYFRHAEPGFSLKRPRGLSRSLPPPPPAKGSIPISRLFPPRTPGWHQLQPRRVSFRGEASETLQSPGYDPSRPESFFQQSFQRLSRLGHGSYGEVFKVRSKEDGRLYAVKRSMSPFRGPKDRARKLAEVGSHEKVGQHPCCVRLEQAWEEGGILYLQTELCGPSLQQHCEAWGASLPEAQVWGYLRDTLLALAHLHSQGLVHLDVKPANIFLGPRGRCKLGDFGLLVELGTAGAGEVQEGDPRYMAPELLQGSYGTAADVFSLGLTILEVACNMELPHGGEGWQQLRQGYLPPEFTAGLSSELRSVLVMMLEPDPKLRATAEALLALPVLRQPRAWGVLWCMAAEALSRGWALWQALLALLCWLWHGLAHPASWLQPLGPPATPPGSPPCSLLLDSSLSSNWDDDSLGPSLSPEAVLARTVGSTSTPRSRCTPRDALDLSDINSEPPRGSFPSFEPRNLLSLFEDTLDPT
Sequence of UniProt Q8NFD2 (whole entry, looked up): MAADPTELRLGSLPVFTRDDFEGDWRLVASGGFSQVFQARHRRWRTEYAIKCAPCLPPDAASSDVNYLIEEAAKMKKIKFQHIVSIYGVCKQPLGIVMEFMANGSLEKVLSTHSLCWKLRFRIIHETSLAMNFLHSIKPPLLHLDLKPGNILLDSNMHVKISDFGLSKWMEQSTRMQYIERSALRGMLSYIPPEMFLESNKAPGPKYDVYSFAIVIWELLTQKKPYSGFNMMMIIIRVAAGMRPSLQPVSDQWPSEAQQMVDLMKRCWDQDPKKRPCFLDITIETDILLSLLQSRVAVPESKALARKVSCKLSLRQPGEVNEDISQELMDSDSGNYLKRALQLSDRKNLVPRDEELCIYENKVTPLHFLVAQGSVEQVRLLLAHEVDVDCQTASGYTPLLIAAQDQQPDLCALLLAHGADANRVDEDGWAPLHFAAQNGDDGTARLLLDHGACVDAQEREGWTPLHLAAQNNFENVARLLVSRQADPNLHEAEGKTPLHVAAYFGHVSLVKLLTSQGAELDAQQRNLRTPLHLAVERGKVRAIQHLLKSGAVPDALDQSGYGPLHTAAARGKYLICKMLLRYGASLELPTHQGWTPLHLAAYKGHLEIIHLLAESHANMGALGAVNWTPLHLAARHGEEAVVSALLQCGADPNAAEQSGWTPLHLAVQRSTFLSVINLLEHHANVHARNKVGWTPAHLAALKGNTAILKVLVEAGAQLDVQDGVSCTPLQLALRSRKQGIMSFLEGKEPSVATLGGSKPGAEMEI
Sequence of UniProt Q12866 (whole entry, looked up): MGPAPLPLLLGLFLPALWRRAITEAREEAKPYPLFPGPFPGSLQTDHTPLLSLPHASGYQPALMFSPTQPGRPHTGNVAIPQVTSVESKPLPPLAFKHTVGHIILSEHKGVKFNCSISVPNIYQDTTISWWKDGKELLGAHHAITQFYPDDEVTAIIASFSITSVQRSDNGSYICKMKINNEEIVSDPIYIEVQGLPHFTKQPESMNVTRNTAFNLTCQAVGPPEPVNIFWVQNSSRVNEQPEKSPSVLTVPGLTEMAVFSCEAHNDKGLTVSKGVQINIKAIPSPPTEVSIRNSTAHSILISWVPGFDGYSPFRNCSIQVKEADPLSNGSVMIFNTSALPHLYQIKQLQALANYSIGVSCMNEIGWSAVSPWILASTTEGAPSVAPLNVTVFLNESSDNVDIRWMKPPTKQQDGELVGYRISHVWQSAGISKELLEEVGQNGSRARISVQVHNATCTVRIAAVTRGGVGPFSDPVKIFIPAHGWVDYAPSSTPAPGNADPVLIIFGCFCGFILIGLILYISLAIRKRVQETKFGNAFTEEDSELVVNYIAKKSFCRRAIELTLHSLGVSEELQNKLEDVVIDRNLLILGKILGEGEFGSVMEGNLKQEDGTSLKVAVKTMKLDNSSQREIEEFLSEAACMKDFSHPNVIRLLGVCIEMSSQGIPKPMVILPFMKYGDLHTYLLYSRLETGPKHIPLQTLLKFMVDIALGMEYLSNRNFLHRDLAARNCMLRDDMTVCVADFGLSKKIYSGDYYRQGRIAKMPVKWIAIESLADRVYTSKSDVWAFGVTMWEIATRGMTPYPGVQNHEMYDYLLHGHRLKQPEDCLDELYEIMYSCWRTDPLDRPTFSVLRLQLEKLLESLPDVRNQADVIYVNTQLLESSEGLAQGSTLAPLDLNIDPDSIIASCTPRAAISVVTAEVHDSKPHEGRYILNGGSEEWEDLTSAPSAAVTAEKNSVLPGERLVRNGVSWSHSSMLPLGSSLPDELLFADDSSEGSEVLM
Sequence of UniProt Q13705 (whole entry, looked up): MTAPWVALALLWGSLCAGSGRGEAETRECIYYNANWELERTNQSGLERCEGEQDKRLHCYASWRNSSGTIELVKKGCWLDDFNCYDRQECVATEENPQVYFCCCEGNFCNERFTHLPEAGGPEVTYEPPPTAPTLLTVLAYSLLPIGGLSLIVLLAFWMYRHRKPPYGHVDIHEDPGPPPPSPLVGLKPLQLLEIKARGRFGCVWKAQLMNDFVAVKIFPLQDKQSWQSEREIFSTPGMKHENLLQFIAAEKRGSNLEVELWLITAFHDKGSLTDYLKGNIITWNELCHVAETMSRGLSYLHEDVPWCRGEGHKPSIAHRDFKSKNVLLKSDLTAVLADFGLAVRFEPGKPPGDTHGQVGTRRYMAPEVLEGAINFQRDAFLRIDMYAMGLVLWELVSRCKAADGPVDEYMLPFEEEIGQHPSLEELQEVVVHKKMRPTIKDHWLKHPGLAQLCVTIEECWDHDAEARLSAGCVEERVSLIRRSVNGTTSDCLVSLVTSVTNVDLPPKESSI
Sequence of UniProt P27361 (whole entry, looked up): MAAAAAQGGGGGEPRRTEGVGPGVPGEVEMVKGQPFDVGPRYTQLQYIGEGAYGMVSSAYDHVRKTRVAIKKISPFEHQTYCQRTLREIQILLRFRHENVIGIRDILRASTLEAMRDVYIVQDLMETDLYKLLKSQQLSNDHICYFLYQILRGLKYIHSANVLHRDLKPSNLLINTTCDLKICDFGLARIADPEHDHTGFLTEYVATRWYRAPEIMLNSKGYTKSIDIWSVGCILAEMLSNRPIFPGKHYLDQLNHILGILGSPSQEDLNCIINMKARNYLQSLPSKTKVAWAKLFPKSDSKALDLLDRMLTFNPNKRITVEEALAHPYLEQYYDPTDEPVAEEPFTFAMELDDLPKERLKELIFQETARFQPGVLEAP
Sequence of UniProt Q6P2M8 (whole entry, looked up): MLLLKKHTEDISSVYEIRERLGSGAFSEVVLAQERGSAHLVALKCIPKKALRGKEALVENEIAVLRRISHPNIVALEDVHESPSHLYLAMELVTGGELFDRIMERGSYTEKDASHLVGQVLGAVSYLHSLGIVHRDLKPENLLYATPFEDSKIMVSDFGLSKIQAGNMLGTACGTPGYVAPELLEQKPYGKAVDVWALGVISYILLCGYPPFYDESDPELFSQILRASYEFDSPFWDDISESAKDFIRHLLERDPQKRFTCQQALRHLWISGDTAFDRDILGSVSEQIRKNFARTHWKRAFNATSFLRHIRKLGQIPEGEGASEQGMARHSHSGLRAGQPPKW

Block 1 — effect on: enzyme activity; mode: inhibitor; tested at: 0.5 µM; reference: control; measurement: remaining activity
Target: Mitogen-activated protein kinase 12 (MAPK12, Homo sapiens, UniProt P53778)
Target sequence (P53778 1-367): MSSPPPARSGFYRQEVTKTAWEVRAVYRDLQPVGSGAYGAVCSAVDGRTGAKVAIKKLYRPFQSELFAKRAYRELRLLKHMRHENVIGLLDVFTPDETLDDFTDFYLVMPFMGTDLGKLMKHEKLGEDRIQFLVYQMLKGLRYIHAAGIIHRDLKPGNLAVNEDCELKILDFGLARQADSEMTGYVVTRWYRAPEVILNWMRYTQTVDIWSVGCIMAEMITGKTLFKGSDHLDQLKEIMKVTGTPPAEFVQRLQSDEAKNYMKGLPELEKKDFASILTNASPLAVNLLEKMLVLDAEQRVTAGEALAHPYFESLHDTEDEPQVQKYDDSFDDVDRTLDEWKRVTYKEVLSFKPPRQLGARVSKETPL
CN(C)c1ccc(C=C2C(=O)Nc3ccccc32)cc1: 102%
Cc1nc(-c2ccccc2)c(-c2ccncc2)o1: 105%
Nc1ncnc2n[nH]c(Nc3ccc(F)cc3)c12: 94.2%
O=C1NC(=O)C(c2cn(CCCO)c3ncccc23)=C1c1cnccn1: 86.8%
COc1cc2ncnc(Nc3ccc(F)c(Cl)c3)c2cc1OCCCN1CCOCC1: 97.5%
Cn1c2ccccc2c2c3c(c4c5ccccc5n(CCC#N)c4c21)CNC3=O: 85.8%
COc1cc2nccc(Oc3ccc(NC(=S)NC(=O)c4ccccc4C)cc3)c2cc1OC: 96.8%
C#Cc1cccc(Nc2ncnc3cc(OCCOC)c(OCCOC)cc23)c1: 97.8%
Nc1[nH]nc2nc3ccccc3nc12: 100%
O=c1c2ccccc2[nH]c(=S)n1CCN1CCC(=C(c2ccc(F)cc2)c2ccc(F)cc2)CC1: 99%
CO[C@H]1C[C@@H]2CC[C@@H](C)[C@@](O)(O2)C(=O)C(=O)N2CCCC[C@H]2C(=O)O[C@H]([C@H](C)C[C@@H]2CC[C@@H](O)[C@H](OC)C2)CC(=O)[C@H](C)/C=C(\C)[C@@H](O)[C@@H](OC)C(=O)[C@H](C)C[C@H](C)/C=C/C=C/C=C/1C: 107%
OCC(O)CCON=C1C(c2c(O)[nH]c3ccccc23)=Nc2ccccc21 (stereo not shown): 89.9%
NCCNc1ncc(C(N)=O)c(Nc2cccc(C(F)(F)F)c2)n1: 98.2%
O=C(Nc1cccc(Nc2cc(Nc3cccc(C(F)(F)F)c3)ncn2)c1)C1CC1: 89.2%

Block 2 — method: RNA Bind-n-Seq; molecule type: RNA; medium: in vitro; tested at: 365 nM; reference: no-protein control; direction: higher = stronger binding; measurement: RBNS enrichment (R)
Target: RNA binding protein fox-1 homolog 2, RRM domain, GST-SBP tag (RBFOX2, Homo sapiens, UniProt O43251-10, residues 100-194)
Setting: natural RNA segment, single round, ends assumed
Shared flanks, not repeated: GGGAGUUCUACAGUCCGACGAUC … UGGAAUUCUCGGGUGCCAA
Construct (chain): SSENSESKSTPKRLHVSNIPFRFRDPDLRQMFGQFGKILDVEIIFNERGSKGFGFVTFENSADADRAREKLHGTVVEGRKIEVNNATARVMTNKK
AUAAUGAUAAUUUAUUAGUCUUUCUGUUAUUUAAAGAAUAAAAACAUGCUUAUAAAAGACUUUUAAUGAAAUGUUGCCUUUUUAAAAUAAUUAUACUUGCACAUGAAAAU: 2.07
AAGCAAUUUUCACGCACAGUAGAUUCAACUUGUUUUUUGUGCUGUUUUUUGAUUUUUGCUGACUUAAAAAGGAUUAAUUUGGGCAGACAUUAUAAAAAGGAAAGGGUUAA: 0.881
UGAUAUAUUUCAGCUUAAAGUUAUGUUAUUAUAUGUGGAUGUAAAUAUAGAUUUGGUGUUUUACAGUCUGGUGUCGUGGUUUUCAUUGUGUUCCUGCUGUGUGUGUGUGU: 1.69
UUUUUUUUAUAUAUAUAUAUAAAAAUAAACUUUACGUAGUGAAAUCUUCCAAGUCUUUUCUGGAAUUAUUAUAAAUACUUUAGUUUUAUUUUCUCAUCUUAAUCUCUCCA: 1.74
UUAAUCCCCAGGUGUGUUAGUCCCAGCCUAGUUUGGUGCUCGAGGUGAGAGGGGAUUUGAAUCUGUUUGCAAAUUGUCCAACCCACCAGGUCAACGUGAGGGGCUUACAU: 0.434
GGGUUUGGCCCCUAGCUCCCACCAUGCUCCAUAGCAAAUGGCUAAAUUAAUAAAGAAGCAAAACUGUCUCUGCUAAGGGUUGCUGGAGGAGAUGGCGCAGAGACCCUGAC: 0.625
AAAAAAGUAAAAUAAGUUAUAGUGGUCAGGGAAUCUCUUGACGAAAGCUAACUCUUAUUUUUCAGGGGGCACAUGUUUUGUUUUGUUAUGUUUUGUUGUACAAUGAAGGA: 0.443
GCCUCCAGCCAGGGCCCUCUAGGGGAACCAAGCCUCUGCUCUCACCUGUGGGUUCUUGCCCAUCAGGGUAAUUGUAUUGAGAACUCAAAUAUACGUGCACUUACAUGUGU: 0.218

Block 3 — tested at: 1 µM; measurement: remaining binding
SMILES: O=C1NC(c2ccccn2)Sc2ccccc21 (stereo not shown)
Activin receptor type-2B (ACVR2B, Homo sapiens, UniProt Q13705); cell-free assay, competition with immobilised ligand: 100%
Tyrosine-protein kinase Mer (MERTK, Homo sapiens, UniProt Q12866); cell-free assay, competition with immobilised ligand: 75%
Tyrosine-protein kinase ABL1, phosphorylated (ABL1, Homo sapiens, UniProt P00519, F317I); binding: 88%
Serine/threonine-protein kinase 35 (STK35, Homo sapiens, UniProt Q8TDR2); cell-free assay, competition with immobilised ligand: 99%
Serine/threonine-protein kinase LATS1 (LATS1, Homo sapiens, UniProt O95835); cell-free assay, competition with immobilised ligand: 98%
Cyclin-dependent kinase 11B (CDK11B, Homo sapiens, UniProt P21127); cell-free assay, competition with immobilised ligand: 100%
Tyrosine-protein kinase ABL1, non-phosphorylated (ABL1, Homo sapiens, UniProt P00519, T315I); cell-free assay, competition with immobilised ligand: 100%
Mitogen-activated protein kinase 3 (MAPK3, Homo sapiens, UniProt P27361); cell-free assay, competition with immobilised ligand: 74%
Mitogen-activated protein kinase kinase kinase kinase 3 (MAP4K3, Homo sapiens, UniProt Q8IVH8); cell-free assay, competition with immobilised ligand: 100%
Calcium/calmodulin-dependent protein kinase type 1B (PNCK, Homo sapiens, UniProt Q6P2M8); cell-free assay, competition with immobilised ligand: 71%
Ankyrin repeat and protein kinase domain-containing protein 1 (ANKK1, Homo sapiens, UniProt Q8NFD2); cell-free assay, competition with immobilised ligand: 77%
Membrane-associated tyrosine- and threonine-specific cdc2-inhibitory kinase (PKMYT1, Homo sapiens, UniProt Q99640); cell-free assay, competition with immobilised ligand: 100%
Cyclin-dependent kinase 4 (CDK4, Homo sapiens, UniProt P11802); cell-free assay, competition with immobilised ligand: 93%

Block 4 — method: protein-binding microarray; molecule type: double-stranded DNA, one strand shown; medium: in vitro; tested at: 250 nM; setting: 60-bp whole probe; added: salmon DNA 0.4 mg/ml; reference: random background probes; direction: higher = stronger binding; measurement: log fluorescence; shared flanks, not repeated: GCCTAGCAC … GTCTTGATTCGCTTGACGCTGCTG
Target: Interferon regulatory factor 7, full length, phosphomimetic (IRF7, Homo sapiens, UniProt Q92985, residues 1-503, S101K/S471D/S472D/S475D/S476D/S477D/S483D/S484D/S487D)
Sequence of UniProt Q92985 (whole entry, unmodified, looked up): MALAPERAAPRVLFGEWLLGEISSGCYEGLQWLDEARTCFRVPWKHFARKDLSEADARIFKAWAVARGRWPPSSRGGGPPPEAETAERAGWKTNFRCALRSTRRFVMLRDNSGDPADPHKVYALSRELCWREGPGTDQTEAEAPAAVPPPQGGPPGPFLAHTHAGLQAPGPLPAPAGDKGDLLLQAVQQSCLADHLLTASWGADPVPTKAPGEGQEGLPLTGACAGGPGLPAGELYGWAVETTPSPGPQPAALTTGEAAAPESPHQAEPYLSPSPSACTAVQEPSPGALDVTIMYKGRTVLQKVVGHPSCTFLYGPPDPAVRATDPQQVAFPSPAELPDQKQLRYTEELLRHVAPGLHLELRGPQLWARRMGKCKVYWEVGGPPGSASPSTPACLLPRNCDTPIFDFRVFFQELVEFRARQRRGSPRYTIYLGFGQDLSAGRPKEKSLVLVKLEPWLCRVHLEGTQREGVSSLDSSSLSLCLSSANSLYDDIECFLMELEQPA
TCAGTTCTCAGCTTGGGACTGTGCTAG: 1.3 z-score
ATAGGTATCCTTCTCCTTTAGTGCTAG: 0.366 z-score
TTAGAACTGAAACTGGATTAGTGCTAG: 0.516 z-score
TCCCTTTCAGTTTTCCTATGGTGCTAG: 1.89 z-score
TTAGGACTGGACTATCGGTTAGTGCTA: -0.0663 z-score
AAACCATCCTGTATGGATGTGTGCTAG: -0.0913 z-score
TTAGATTTCGGGTATCAATTAGTGCTA: 1.22 z-score
TTAGGTTTCGGACTGGATTAGTGCTAG: 3.85 z-score

Some of these lines once more (block 4):
ATAGGTATCCTTCTCCTTTAGTGCTAG: 0.366 z-score
TTAGAACTGAAACTGGATTAGTGCTAG: 0.516 z-score
TCCCTTTCAGTTTTCCTATGGTGCTAG: 1.89 z-score
TTAGGACTGGACTATCGGTTAGTGCTA: -0.0663 z-score
AAACCATCCTGTATGGATGTGTGCTAG: -0.0913 z-score
TTAGATTTCGGGTATCAATTAGTGCTA: 1.22 z-score
TTAGGTTTCGGACTGGATTAGTGCTAG: 3.85 z-score
